Published values of several laboratories.
Compare with care: the assays were run in different laboratories.

SMILES	organism	test	system	setting	MIC
CC[C@H](C)[C@H](NC(=O)[C@@H](NC(=O)CN)C(C)C)C(=O)N[C@@H](Cc1ccccc1)C(=O)N[C@@H](CC(N)=O)C(=O)N[C@@H](C)C(=O)N[C@@H](CC(C)C)C(=O)N[C@@H](CCCCN)C(=O)NCC(=O)N[C@H](C(=O)N[C@@H](C)C(=O)N[C@@H](CCCCN)C(=O)N[C@H](C(=O)N[C@H](C(=O)N[C@@H](C)C(=O)N[C@@H](C)C(=O)N[C@@H](CCC(N)=O)C(=O)N[C@@H](CC(C)C)C(=O)N[C@@H](CC(C)C)C(=O)N[C@@H](CCCCN)C(=O)N[C@@H](CCCCN)C(=O)N[C@@H](C)C(=O)N[C@@H](CCCNC(=N)N)C(=O)N[C@H]1CSSC[C@@H](C(=O)O)NC(=O)[C@H](CO)NC(=O)[C@H](CCCCN)NC(=O)[C@H](CC(=O)O)NC(=O)[C@H](CC(C)C)NC(=O)[C@H](CCCCN)NC1=O)C(C)C)[C@@H](C)O)C(C)C	Staphylococcus aureus	–	NCTC 10788, Mueller-Hinton broth	together with: ZnCl2 8 mM	2 µM
[O-][N+]1=C(c2ccccc2)C2=NCCN2c2ccccc21	Fusobacterium nucleatum	microbial growth	ATCC25586	–	≤ 0.06 µg/mL
CN[C@@H]1[C@H](O)[C@H](NC)[C@H]2O[C@]3(O)[C@H](O[C@@H]2[C@H]1O)O[C@H](C)C[C@@]3(O)CNCc1ccc(F)cc1	Listeria monocytogenes	–	–	–	6.3 µg/mL
CC[C@H](C)[C@H](NC(=O)[C@H](CO)NC(=O)[C@H](CO)NC(=O)[C@H](Cc1ccccc1)NC(=O)CN)C(=O)N[C@@H](Cc1ccccc1)C(=O)N[C@@H](CCCNC(=N)N)C(N)=O	Escherichia coli	–	ATCC 8739	together with: 4 µM FeCl3	> 128 µM
CC(C)C[C@@H]1NC(=O)[C@H](C)NC(=O)[C@H](NC(=O)[C@@H](N)COC(=O)[C@@H](C)NC(=O)[C@@H](CC(C)C)NC(=O)[C@@H](N)Cc2ccccc2)[C@H](C(N)=O)OC(=O)[C@H](CC(C)C)NC1=O	Bacillus subtilis Bacillus subtilis	–	ATCC 6051	tested as TFA salt	> 32 µg/mL
CC[C@H](C)[C@H](NC(=O)[C@H](CC(C)C)NC(=O)CCNC(=O)[C@H](CO)NC(=O)[C@H](CCCNC(=N)N)NC(=O)[C@@H](N)CO)C(=O)N[C@H](C(=O)N[C@@H](Cc1c[nH]cn1)C(=O)N[C@@H](CCC(N)=O)C(=O)N[C@@H](CCCNC(=N)N)C(=O)N[C@@H](CC(C)C)C(=O)N[C@@H](Cc1ccccc1)C(N)=O)C(C)C	Trichophyton rubrum	broth microdilution	ATCC 28189	–	> 400 µg/mL
CC[C@H](C)[C@H](NC(=O)CNC(=O)[C@H](CCCCN)NC(=O)[C@H](C)NC(=O)[C@H](CCC(=O)O)NC(=O)[C@H](Cc1ccccc1)NC(=O)[C@H](CO)NC(=O)[C@H](CC(C)C)NC(=O)[C@@H](NC(=O)[C@H](CC(=O)O)NC(=O)[C@H](C)NC(=O)[C@@H](NC(=O)[C@@H](N)C(C)C)[C@@H](C)O)C(C)C)C(=O)N[C@@H](C)C(=O)N[C@H](C(=O)N[C@@H](CC(N)=O)C(=O)N[C@@H](Cc1c[nH]cn1)C(=O)N[C@@H](CO)C(=O)N[C@@H](C)C(=O)N[C@H]1CSSC[C@@H]2NC(=O)[C@H](C(C)C)NC(=O)CNC(=O)[C@H](CC(N)=O)NC(=O)[C@H](CCC(N)=O)NC(=O)[C@H](C)NC(=O)[C@H](CO)NC(=O)CNC(=O)CNC(=O)[C@H](CCCCN)NC(=O)[C@H](CCCCN)NC(=O)[C@H](CCCNC(=N)N)NC(=O)[C@H](CC(C)C)NC(=O)[C@H](C)NC(=O)[C@H]([C@@H](C)CC)NC(=O)[C@H](CSSC[C@@H](C(=O)N[C@@H](CCCNC(=N)N)C(=O)N[C@@H](CC(N)=O)C(=O)O)NC(=O)[C@H](C(C)C)NC2=O)NC(=O)[C@H](Cc2c[nH]cn2)NC(=O)[C@H](CC(C)C)NC(=O)[C@H](C)NC1=O)C(C)C	Malassezia furfur	broth microdilution	KCTC 7744	32 °C, YM broth with 1% olive oil	25 µM
CC[C@H](C)[C@H](NC(=O)[C@H](Cc1c[nH]c2ccccc12)NC(=O)[C@H](CCCNC(=N)N)NC(=O)[C@H](CCC(N)=O)NC(=O)[C@@H](NC(=O)[C@H](Cc1c[nH]c2ccccc12)NC(=O)[C@H](CCCNC(=N)N)NC(=O)[C@H](CCCNC(=N)N)NC(=O)[C@H](CCSC)NC(=O)[C@H](C)NC(=O)[C@H](CCCCN)NC(=O)[C@@H]1CCCN1C(=O)[C@H](C)N)C(C)C)C(=O)N[C@@H](CCCNC(=N)N)C(=O)N[C@@H](CCCNC(=N)N)C(=O)N[C@@H](Cc1c[nH]c2ccccc12)C(=O)N[C@@H](CCCNC(=N)N)C(=O)N1CCC[C@H]1C(=O)N[C@@H](CCCCN)C(=O)N[C@H](C(=O)N[C@@H](Cc1ccccc1)C(=O)N[C@@H](CCC(N)=O)C(=O)N[C@H](C(=O)N[C@H](C(=O)NCC(=O)N[C@@H](CO)C(=O)N[C@@H](CO)C(=O)N[C@@H](C)C(N)=O)[C@@H](C)O)C(C)C)C(C)C	Malassezia furfur	cell growth	DTO 383-D9	48 h, 30 °C	≤ 0.3 µM
C[N+]1=C2C(c3ccc([N+](=O)[O-])cc3)=[N+]([O-])c3ccccc3N2CCC1	Peptostreptococcus anaerobius	–	–	–	0.125 µg/mL
CCCCCCCCCCCCCCCCCCSCC1OC(OC2C(N)CC(N)C(OC3OC(CN)C(O)CC3N)C2O)C(O)C(N)C1O (centres unmarked)	Listeria monocytogenes	–	ATCC 19115	–	75 µg/mL
CC[C@H](C)[C@H](NC(=O)[C@H](CC(C)C)NC(=O)[C@H](CCC(=O)O)NC(=O)[C@H](CO)NC(=O)[C@H](CCCNC(=N)N)NC(=O)[C@@H](N)CO)C(=O)N[C@H](C(=O)N[C@@H](CCCNC(=N)N)C(=O)N[C@@H](CCC(N)=O)C(=O)N[C@@H](CCCNC(=N)N)C(=O)N[C@@H](CC(C)C)C(=O)N[C@@H](Cc1ccccc1)C(N)=O)C(C)C	Trichophyton rubrum	broth microdilution	ATCC 28189	–	> 400 µg/mL
COc1ccc(C2=[N+]([O-])c3ccccc3N3CCN=C23)cc1	Bacteroides ovatus	–	ATCC 84834	–	≤ 0.06 µg/mL
C/C=C1\NC(=O)[C@H](Cc2ccccc2)NC(=O)[C@H](C(C)C)NC(=O)[C@H](Cc2ccccc2)NC(=O)[C@H](CCC(N)=O)NC(=O)[C@H](Cc2c[nH]c3ccccc23)NC(=O)[C@H]2CSC[C@@H](C(=O)N[C@@H](CO)C(=O)O)NC(=O)[C@H](CSC[C@H]3NC(=O)[C@H]([C@@H](C)CC)NC(=O)[C@H](NC(=O)[C@H](Cc4c[nH]cn4)NC(=O)[C@@H](NC(=O)[C@@H](NC(=O)CNC(=O)[C@H](CO)NC(=O)CNC(=O)CNC(=O)[C@@H](N)CCCCN)C(C)C)[C@@H](C)CC)[C@H](C)SC[C@H](NC(=O)[C@H](CCC(=O)O)NC(=O)[C@H](Cc4c[nH]cn4)NC3=O)C(=O)N[C@@H](CC(N)=O)C(=O)N[C@@H](CCSC)C(=O)N[C@@H](CC(N)=O)C(=O)N2)NC1=O	Lactococcus lactis subsp. cremoris	–	HP ATCC 11602	6 h, 30 °C	0.625 µM
C[N+]1=C2C(c3ccccc3)=[N+]([O-])c3ccccc3N2CCC1	Peptostreptococcus anaerobius	–	–	–	16 µg/mL
CC[C@H](C)[C@H](NC(=O)[C@@H]1CC(=O)N[C@@H](CO)C(=O)N[C@@H](CC(C)C)C(=O)NCC(=O)N[C@@H](CO)C(=O)N[C@@H](CO)C(=O)N2CCC[C@H]2C(=O)N[C@@H](Cc2ccc(O)cc2)C(=O)N[C@@H](CC(N)=O)C(=O)N1)C(=O)N[C@@H](CC(C)C)C(=O)NCC(=O)N[C@@H](Cc1ccc(O)cc1)C(=O)N1CCC[C@H]1C(=O)N[C@@H](C)C(=O)N[C@@H](CC(C)C)C(=O)N[C@H](C(=O)N[C@H](C(=O)N[C@H](C(=O)N[C@@H](Cc1ccc(O)cc1)C(=O)N1CCC[C@H]1C(=O)O)[C@@H](C)CC)C(C)C)[C@@H](C)CC	Pseudomonas putida	–	–	–	> 128 µg/mL
[O-][N+]1=C(c2ccccc2)C2=NCCCN2c2ncccc21	Fusobacterium mortiferum	microbial growth	–	–	0.125 µg/mL
CC1C(=NOCc2cc(-c3ccc(Cl)cc3)no2)C(C)C(c2ccc(Br)cc2)OC1c1ccc(Br)cc1 (centres unmarked)	Aspergillus flavus	microbial growth	–	–	50 µg/mL
COc1ccc(C2=[N+]([O-])c3ccccc3N3CC(C)(C)CN=C23)cc1	Fusobacterium nucleatum	microbial growth	ATCC25586	–	0.25 µg/mL
N#Cc1ccc(-c2c[nH]c(CNC(=O)Nc3ncc(Sc4ccccn4)s3)n2)cc1	Bacteroides ovatus	broth microdilution	ATCC 8485	together with: verapamil 50 µg/mL	> 128 µM
CC(C)[C@H](NC(=O)[C@H]1NC(=O)[C@H](CO)NC(=O)[C@H](CC(N)=O)NC(=O)[C@@H](N)Cc2c[nH]c3cc(ccc23)C1C(N)=O)C(=O)N[C@H]1Cc2cn(cn2)C(c2ccc(O)cc2)[C@@H](C(=O)N[C@@H](CCCNC(=N)N)C(=O)N[C@@H](Cc2ccccc2)C(=O)O)NC(=O)[C@H](CO)NC1=O (some centres unmarked)	Veillonella ratti	–	KLE 2365	–	16 µg/mL
c1ccc(CCNC2CCCc3c2[nH]c2ccc(C4CCCCC4)cc32)cc1 (centres unmarked)	Staphylococcus simulans	broth microdilution	22, cation-adjusted Mueller-Hinton broth	–	2 µg/mL
[O-][N+]1=C(c2ccsc2)C2=NCCCN2c2ccccc21	Bacteroides ovatus	–	ATCC 84834	–	1 µg/mL
CC(C)C[C@@H]1NC(=O)[C@H](C)NC(=O)[C@H](NC(=O)[C@H](CO)NC(=O)[C@@H](CCCCN)NC(=O)[C@@H](CC(C)C)NC(=O)[C@@H](N)Cc2ccccc2)[C@H](C)OC(=O)[C@H](CC(C)C)NC1=O	Bacillus subtilis Bacillus subtilis	–	ATCC 6051	tested as TFA salt	1 µg/mL

Excerpt of the above:
SMILES	organism	test	system	setting	MIC
CCCCCCCCCCCCCCCCCCSCC1OC(OC2C(N)CC(N)C(OC3OC(CN)C(O)CC3N)C2O)C(O)C(N)C1O (centres unmarked)	Listeria monocytogenes	–	ATCC 19115	–	75 µg/mL
CC[C@H](C)[C@H](NC(=O)[C@H](CC(C)C)NC(=O)[C@H](CCC(=O)O)NC(=O)[C@H](CO)NC(=O)[C@H](CCCNC(=N)N)NC(=O)[C@@H](N)CO)C(=O)N[C@H](C(=O)N[C@@H](CCCNC(=N)N)C(=O)N[C@@H](CCC(N)=O)C(=O)N[C@@H](CCCNC(=N)N)C(=O)N[C@@H](CC(C)C)C(=O)N[C@@H](Cc1ccccc1)C(N)=O)C(C)C	Trichophyton rubrum	broth microdilution	ATCC 28189	–	> 400 µg/mL
